Measured values collected from several papers.
Each numbered part is a random draw from the data of one study; scales do not carry over between parts.

Block 1
Target: Centromere-binding protein 1, full length, N-terminal tag (CBF1, Saccharomyces cerevisiae, UniProt P17106, residues 1-351)
Sequence of UniProt P17106 (whole entry, looked up): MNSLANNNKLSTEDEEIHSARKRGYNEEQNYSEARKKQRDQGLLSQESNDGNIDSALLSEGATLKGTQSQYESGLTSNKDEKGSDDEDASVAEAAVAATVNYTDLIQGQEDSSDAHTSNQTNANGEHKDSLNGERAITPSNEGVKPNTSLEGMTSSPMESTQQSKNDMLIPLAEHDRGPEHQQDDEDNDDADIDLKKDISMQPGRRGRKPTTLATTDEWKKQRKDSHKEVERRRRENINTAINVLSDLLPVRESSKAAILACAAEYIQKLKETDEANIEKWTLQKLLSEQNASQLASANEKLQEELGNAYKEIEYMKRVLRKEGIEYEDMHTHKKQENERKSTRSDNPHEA
Technique: protein-binding microarray
Molecule type: double-stranded DNA, one strand shown
Medium: in vitro
Concentration: 0.8 µM
Setting: whole 60-bp probe, no competitor
Reading: higher = stronger binding
Shared flanks, not repeated: … GTCTTGATTCGCTTGACGCTGCTG
Oligonucleotide	fluorescence intensity
TGTACGAAGCTATCTCACGTGGTTATAGTAGTTAGG	3640 a.u.
CTACGATACCCTATGAACGTGCACCTTTTTTGTTTC	616 a.u.
CCTAACTACTATACTGGTGGGCTATAGCTTCGTACA	475 a.u.
CTATTCCTCCTGATCCTTGTGATTATAACTATATTC	595 a.u.
CTATTTCTTTTCCTGCGCACGCCGATAAAGAAGTTC	562 a.u.
CTACACACTTTAGGAGCCGTGATAAAGAAGACTTTC	550 a.u.
GAACTTCATTGTTCTTGTCTGATGATTCAAAAGTAG	592 a.u.
GAACAAACTAAATAGCACGTAATTTATTTTTACTAG	576 a.u.
CCTAACTACTATAACCACGTACTATAGCTTCGTACA	538 a.u.
GAAATTCATTATATAGCCGTGATGTATATTCCGTAG	600 a.u.
GAATTTACCGTCAACCTGGTGATGGCGAGATATTAG	486 a.u.
GAAAAAGTTTCTGTTCACGTTTTCATGGCATTTTAG	805 a.u.
CTAACCTTTCCTTATTGTGTGACCACAGCCGAATTC	551 a.u.
CTAGAGAACCATCATCATGTCTCTCCTCAACCTTTC	535 a.u.
GAAACGGTACGTATCCACGTGGAGAAGCACATTTAG	2450 a.u.
GAATTAACATATTAGCACGGGGAGGCCGATGTTTAG	606 a.u.
CTAAAGGACCGTTCCGACGTGCGCCTTCCTGATTTC	489 a.u.
CTATAACCCAGTTTCAACGTGTTATTACTCAACTTC	533 a.u.
TGTACGAAGCTATCACAGGTGACTATAGTAGTTAGG	740 a.u.

Block 2
Target: Sal-like protein 4, full length isoform B (SALL4, Homo sapiens, UniProt Q9UJQ4-2, residues 1-616)
Technique: universal PBM
Molecule type: double-stranded DNA, one strand shown
Medium: in vitro
Concentration: not given
Setting: 8-mer, flanks averaged, mean of replicates
Reading: higher = stronger binding
Oligonucleotide	E-score
GAAGGAGA	0.0867
TAGAGTCA	-0.107
CGCTGAAC	-0.047
ACTACCTC	-0.00262
ACAAGCTG	-0.166
CTGTTGGC	-0.184
ATGCGTAG	-0.0151
CTTCTGCC	-0.16
ACATGTCG	0.0319
TACAGTGA	0.171
CACTATCC	0.108
CGTCCATA	0.107
CTGTACCC	-0.24
CAATGCCC	-0.156
ACTAATGG	0.113
GAGGGACC	-0.246
AATAGCAA	0.32
CATCACAC	-0.0884
CGGTATTA	0.131
CGCAAGCA	0.109
ACCTTTAG	0.104
AATGGAAA	0.14
ATCACGCC	-0.0366
CGTACTCA	-0.0843
AAACCCAG	-0.0699

Block 3
Target: RNA binding protein fox-1 homolog 2, RRM domain, GST-SBP tag (RBFOX2, Homo sapiens, UniProt O43251-10, residues 100-194)
Technique: RNA Bind-n-Seq
Molecule type: RNA
Medium: in vitro
Concentration: 365 nM
Setting: natural RNA segment, single round, ends assumed
Reference: no-protein control
Reading: higher = stronger binding
Shared flanks, not repeated: GGGAGUUCUACAGUCCGACGAUC … UGGAAUUCUCGGGUGCCAA
Target sequence (chain): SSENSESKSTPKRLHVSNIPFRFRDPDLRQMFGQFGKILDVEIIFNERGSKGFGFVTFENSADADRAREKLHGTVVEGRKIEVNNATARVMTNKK
Oligonucleotide	RBNS enrichment (R)
GAGUUUAUUAUAACUUAUUGUUCAUAUUCAUUUCUAAGUUAAUUUAAGUAAUCAUUUAUUAAGACAGAAUUUUGUAUAAACUAUUUAUUGUGCUCUCUGUGGAACUGAAG	0.64
AGAUGUGACAGCUGGGCUCUGAAGCUAUUUCUGUGUGUGGAGGGAGACAGGAAAGGGUGCUGUGCUAGUAGUGAGAGUGACACAGAUUGCCUCAUGAUUGUCUGGAGUGU	2.05
UGAUUUCUGUUUUGUCUACAGACUCUUAACAAACCUCAGGAAAACUGUCCCUCUACCAGUUACCUUAGUUGGGGAGCCAGUGCGUGUCACACCAGAUAAGCGGUUGUGUG	0.294
GGUUGACCUUCCUCCAUCCCCUGGUCCUUCCCUUCCCUUCCCGAGGCACAGAGAGACAGGGCAGGAUCCACGUGCCCAUUGUGGAGGCAGAGAAAAGAGAAAGUGUUUUA	0.632
GUAGAAGCAGGCUGGCUGGAUCGUGGCAUUAGAGGGAACUCUUGGUACCUGGAAAUGUGAAUCUGGAUUCUUACCUGUGUCAUCAGAGUAGUAAUGGAUUCAGUACUCCU	0.843
UACAGGGUACCUUGUGCUCUGCCCCCAGACCCAUAGCCUUAGCAGUGGGCCAACUACAAUCCUCAUCUCCUAAAGUCAUCUACAGAUGGCAGGUGGAAGAAAGUGGUUCU	0.152
UUCGUCCUGUACCUAGGACCGGAGGAAAGACGUGACUGCUCUAACCGGACCUCUGACUACCGGUGGCUUUUACAAAAAAAAAACAGCUAAAACGUACUCAGCAAAAAAAA	0.249
UUGGAGGCUGUGUUACAUGCAUGCCCUAAAGCAGUCAGUCUGUUAGUAUGAGCAAGACAUCUGAAGUACACAGUUGCUUUUAGGCUUGUAUAGUUAUUUUCUACACAUGC	0.812

Block 4
Target: Histone acetyltransferase KAT6A, both winged helices, GST fusion (KAT6A, Homo sapiens, UniProt Q92794, residues 1-181)
Technique: protein binding microarray
Molecule type: double-stranded DNA, one strand shown
Medium: in vitro
Concentration: not given
Setting: 8-mer, flanks averaged, mean of 2 arrays, mostly near background
Reference: not given
Reading: higher = stronger binding
Target sequence (chain): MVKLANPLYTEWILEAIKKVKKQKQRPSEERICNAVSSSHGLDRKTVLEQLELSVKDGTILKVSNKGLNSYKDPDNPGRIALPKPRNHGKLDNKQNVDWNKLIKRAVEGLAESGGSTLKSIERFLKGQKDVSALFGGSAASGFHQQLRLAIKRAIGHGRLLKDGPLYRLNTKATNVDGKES
Oligonucleotide	E-score
ACTTGTAA	-0.0457
CGCCAGTC	0.0827
GACGGCGC	0.356
AAGGGCAG	-0.031
AGAGTCTA	-0.138
CGTTACTC	0.00972
CTTAACGA	-0.113
GTTAGTTA	0.139
TCATTGGA	-0.14
ATAATGAG	-0.13
AAGTCTAA	-0.0867
CGGTAGGC	0.177
TCAACGAA	-0.077
AGGCACGC	0.0683
AAGGCTTG	-0.125
AAGGTTCT	-0.143
ACACGTGC	0.0931
AGCCTTCC	-0.106
CCGTTCAC	0.141
ATGCAGAC	-0.0751
AATGACAT	0.038
CCAGTAGG	-0.125
CTGGTCAC	-0.121
TAGACCTA	-0.0342
ATTTCAGC	-0.193

Some of these lines once more (block 4):
Oligonucleotide	E-score
TCATTGGA	-0.14
AAGGCTTG	-0.125
CGGTAGGC	0.177
AGCCTTCC	-0.106
CTGGTCAC	-0.121
AGAGTCTA	-0.138
